# Measured values from different studies.
# Each numbered part is a random draw from the data of one study; scales do not carry over between parts.
# Sequence of UniProt P42685 (whole entry, looked up): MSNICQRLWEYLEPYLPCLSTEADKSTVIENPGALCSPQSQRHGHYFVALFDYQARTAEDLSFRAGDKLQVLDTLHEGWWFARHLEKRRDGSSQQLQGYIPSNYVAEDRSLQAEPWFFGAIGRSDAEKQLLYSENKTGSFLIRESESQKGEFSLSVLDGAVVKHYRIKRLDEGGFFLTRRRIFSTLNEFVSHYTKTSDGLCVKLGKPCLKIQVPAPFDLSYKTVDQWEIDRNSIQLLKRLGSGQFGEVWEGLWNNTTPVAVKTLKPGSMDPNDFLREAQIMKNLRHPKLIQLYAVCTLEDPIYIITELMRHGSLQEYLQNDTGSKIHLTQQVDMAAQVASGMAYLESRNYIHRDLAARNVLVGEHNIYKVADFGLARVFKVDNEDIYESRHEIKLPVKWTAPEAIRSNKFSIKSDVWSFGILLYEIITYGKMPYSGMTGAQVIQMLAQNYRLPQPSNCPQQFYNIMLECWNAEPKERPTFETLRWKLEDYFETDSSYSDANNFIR
# Sequence of UniProt Q02156 (whole entry, looked up): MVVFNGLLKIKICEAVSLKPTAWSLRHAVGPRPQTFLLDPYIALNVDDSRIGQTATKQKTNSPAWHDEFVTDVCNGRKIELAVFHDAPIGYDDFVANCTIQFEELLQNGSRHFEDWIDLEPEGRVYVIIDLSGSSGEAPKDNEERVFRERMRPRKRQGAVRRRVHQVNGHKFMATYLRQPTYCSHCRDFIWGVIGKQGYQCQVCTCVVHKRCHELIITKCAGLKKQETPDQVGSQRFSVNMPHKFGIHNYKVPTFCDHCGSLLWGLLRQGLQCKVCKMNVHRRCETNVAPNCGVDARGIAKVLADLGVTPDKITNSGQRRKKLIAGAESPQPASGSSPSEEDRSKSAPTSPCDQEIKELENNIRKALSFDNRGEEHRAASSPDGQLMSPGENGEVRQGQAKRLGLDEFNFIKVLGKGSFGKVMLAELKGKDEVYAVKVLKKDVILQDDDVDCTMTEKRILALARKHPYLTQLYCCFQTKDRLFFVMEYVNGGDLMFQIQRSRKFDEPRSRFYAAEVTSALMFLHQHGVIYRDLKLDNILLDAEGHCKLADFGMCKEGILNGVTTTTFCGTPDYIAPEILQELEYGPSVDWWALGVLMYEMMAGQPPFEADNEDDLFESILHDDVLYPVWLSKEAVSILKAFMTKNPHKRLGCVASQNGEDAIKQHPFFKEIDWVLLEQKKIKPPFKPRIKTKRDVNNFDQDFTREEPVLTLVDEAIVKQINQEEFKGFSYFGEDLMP
# Sequence of UniProt P29320 (whole entry, looked up): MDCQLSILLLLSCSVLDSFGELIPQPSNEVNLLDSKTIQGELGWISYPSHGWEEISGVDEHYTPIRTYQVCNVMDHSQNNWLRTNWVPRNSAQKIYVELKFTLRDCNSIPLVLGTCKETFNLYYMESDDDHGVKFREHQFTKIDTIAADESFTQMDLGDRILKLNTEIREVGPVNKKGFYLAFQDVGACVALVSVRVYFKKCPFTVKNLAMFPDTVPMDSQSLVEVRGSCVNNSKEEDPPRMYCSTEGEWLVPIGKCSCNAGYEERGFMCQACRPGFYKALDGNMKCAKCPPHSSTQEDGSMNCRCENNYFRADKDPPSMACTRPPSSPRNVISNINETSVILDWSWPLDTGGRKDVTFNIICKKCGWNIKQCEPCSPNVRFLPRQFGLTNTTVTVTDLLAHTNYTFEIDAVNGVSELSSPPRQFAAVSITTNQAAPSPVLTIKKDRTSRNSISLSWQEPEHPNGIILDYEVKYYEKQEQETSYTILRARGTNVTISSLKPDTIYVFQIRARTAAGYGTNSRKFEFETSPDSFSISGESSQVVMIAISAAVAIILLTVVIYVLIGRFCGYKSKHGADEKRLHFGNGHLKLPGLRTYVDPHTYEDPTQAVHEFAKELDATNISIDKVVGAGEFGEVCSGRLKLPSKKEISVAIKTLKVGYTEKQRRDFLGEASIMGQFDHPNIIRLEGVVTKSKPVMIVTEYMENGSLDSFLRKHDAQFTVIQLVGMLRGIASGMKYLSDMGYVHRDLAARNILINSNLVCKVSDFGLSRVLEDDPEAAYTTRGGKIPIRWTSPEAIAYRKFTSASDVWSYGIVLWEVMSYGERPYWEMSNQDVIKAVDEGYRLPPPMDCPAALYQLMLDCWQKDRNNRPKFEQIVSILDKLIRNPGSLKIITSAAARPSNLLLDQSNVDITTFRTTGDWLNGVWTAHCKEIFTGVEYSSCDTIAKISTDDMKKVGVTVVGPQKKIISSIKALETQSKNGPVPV
# Sequence of UniProt Q15349 (whole entry, looked up): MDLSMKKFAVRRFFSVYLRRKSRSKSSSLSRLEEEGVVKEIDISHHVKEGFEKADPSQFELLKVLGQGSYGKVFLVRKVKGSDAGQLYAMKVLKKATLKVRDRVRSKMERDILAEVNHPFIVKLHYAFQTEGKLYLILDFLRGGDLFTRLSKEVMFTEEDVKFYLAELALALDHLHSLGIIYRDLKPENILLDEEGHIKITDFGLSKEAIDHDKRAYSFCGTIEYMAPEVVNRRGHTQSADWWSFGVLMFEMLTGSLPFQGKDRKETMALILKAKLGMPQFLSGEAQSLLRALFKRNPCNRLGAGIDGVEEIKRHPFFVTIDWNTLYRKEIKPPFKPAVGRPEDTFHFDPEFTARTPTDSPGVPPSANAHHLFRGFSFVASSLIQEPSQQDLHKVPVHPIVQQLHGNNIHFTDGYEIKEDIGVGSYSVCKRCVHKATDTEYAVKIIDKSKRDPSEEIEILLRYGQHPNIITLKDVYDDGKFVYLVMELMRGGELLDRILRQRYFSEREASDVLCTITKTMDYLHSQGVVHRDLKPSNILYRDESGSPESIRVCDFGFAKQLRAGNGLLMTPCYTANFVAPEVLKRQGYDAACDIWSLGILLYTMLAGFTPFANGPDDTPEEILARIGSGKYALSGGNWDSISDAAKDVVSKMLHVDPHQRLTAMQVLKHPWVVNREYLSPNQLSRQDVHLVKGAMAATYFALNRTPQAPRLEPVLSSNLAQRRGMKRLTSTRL
# Sequence of UniProt O00444 (whole entry, looked up): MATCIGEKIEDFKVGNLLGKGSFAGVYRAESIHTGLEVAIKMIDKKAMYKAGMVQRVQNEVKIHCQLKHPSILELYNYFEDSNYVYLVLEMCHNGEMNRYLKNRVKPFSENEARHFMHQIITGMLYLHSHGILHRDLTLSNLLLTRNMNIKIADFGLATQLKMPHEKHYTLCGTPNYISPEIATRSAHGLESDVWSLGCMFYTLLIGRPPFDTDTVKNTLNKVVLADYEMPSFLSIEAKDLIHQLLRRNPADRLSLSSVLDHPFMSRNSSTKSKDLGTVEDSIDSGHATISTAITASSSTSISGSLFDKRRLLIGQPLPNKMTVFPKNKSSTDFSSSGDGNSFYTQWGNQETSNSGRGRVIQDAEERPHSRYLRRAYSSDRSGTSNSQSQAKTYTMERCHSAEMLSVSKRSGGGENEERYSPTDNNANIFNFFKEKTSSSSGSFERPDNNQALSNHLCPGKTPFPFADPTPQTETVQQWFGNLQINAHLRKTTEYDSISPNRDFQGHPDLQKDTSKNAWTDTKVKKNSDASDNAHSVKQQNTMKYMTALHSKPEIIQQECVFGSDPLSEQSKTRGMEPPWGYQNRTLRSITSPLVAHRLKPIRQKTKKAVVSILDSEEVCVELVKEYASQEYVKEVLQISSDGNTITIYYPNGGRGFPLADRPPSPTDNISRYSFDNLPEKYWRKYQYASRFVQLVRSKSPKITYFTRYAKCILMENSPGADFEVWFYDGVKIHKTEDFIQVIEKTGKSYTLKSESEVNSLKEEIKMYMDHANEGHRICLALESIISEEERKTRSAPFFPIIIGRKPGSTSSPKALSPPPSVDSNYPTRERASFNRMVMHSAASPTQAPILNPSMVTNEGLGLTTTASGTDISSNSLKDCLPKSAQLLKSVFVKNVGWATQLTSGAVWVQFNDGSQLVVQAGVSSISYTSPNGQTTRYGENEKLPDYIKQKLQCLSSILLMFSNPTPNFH

# Set 1
# Cell line: mouse MPNST tumor cells
# Method: high-content immunofluorescence imaging
# Item: nuclear SOX9
# Concentration: 10 µM
# Time: 12 h
# Notes: mean of 2 replicates
# Reference: DMSO control
# Direction: higher = more nuclear SOX9
SMILES,nuclear SOX9 intensity
COc1cc2c(cc1C(F)(F)F)N(C(=O)Nc1cc(F)cc(-c3cccnc3)c1)CC2,202 % of DMSO
CC(=O)NCC(=O)N1[C@@H]2CC[C@H]1c1ccc(Nc3ncc(C(F)(F)F)c(NC4CCC4)n3)cc12,68.5 % of DMSO
O=C(O)CCCc1ccccc1,107 % of DMSO
CC(C)Oc1ccc2c(=O)c3cc(C(=O)O)ccc3oc2c1,94.9 % of DMSO
CCCc1nc2nc(C)c(NS(=O)(=O)c3ccc(C4CCCCC4)cc3)c(=O)n2[nH]1,97.9 % of DMSO
COc1ccc2[nH]c3c(-c4cccc5ccccc45)nccc3c2c1,199 % of DMSO
C[C@]12CC[C@@H]3c4ccc(O)cc4CC[C@H]3[C@@H]1C[C@@H](O)[C@@H]2O,105 % of DMSO
COc1cc(SC)ccc1C(=O)N1CCC(Cc2ccccc2)CC1,116 % of DMSO
CC(=O)OCC(=O)[C@@]12N=C(C)O[C@@H]1C[C@H]1[C@@H]3CCC4=CC(=O)C=C[C@]4(C)[C@H]3[C@@H](O)C[C@@]12C,87.8 % of DMSO

# Set 2
# Species: mouse
# Matrix: microsomes or S9
# Concentration: 2 µM
# Time: 0.5 h
Structure (SMILES),remaining compound [%]
O=C1NC(=O)c2c1cc1ccccc1c2-c1ccccc1,12.6
CC(C)(C)C1CCc2c(sc3ncnc(O)c23)C1 (stereo not shown),64.5
CC(=O)c1c(NC2CCCc3ccccc32)[nH]c2c(C)cc(Cl)cc2c1=O (stereo not shown),0.358
N#Cc1c[nH]c(C(=O)N2CC(=O)NC3CCCCC32)c1 (stereo not shown),75.9
CCCC1CCc2c(sc(NC(=O)c3ccccc3)c2C(=O)O)C1 (stereo not shown),21
Cc1cnc(C(=O)N(CCC(=O)NC(C)C)CC2CCCO2)cn1 (stereo not shown),56.6
COc1ccccc1CCN1C(O)=c2ccccc2=NC12C(=O)Nc1ccccc12 (stereo not shown),0.2

# Set 3
# Compound: Nc1[nH]nc2nnc(-c3c(-c4ccccc4)nn4ccccc34)cc12
# Read-out: enzyme activity
# Mode: inhibitor
# Concentration: 0.5 µM
# Reference: control
target,remaining activity [%]
"MAP2K2 (Homo sapiens, UniProt P36507)",99.4
"ULK2 (Homo sapiens, UniProt Q8IYT8)",100
"MAP3K14 (Homo sapiens, UniProt Q99558)",102
"ACVR1B (Homo sapiens, UniProt P36896)",107
"RPS6KA2 (Homo sapiens, UniProt Q15349)",96.5
"TAOK2 (Homo sapiens, UniProt Q9UL54)",101
"FRK (Homo sapiens, UniProt P42685)",101
"ABL2 (Homo sapiens, UniProt P42684)",57.5
"CSNK1G2 (Homo sapiens, UniProt P78368)",93.7
"MAPKAPK2 (Homo sapiens, UniProt P49137)",105
"LCK (Homo sapiens, UniProt P06239)",95.1
"MAP3K5 (Homo sapiens, UniProt Q99683)",99.3
"MERTK (Homo sapiens, UniProt Q12866)",76.4
"EPHA3 (Homo sapiens, UniProt P29320)",97.8

# Set 4
# SMILES: Cc1cc(NC(=O)c2cccc(S(F)(F)(F)(F)F)c2)cc(-n2ccn3nc(-c4cccnc4)cc23)c1
# Read-out: cell-free assay
# Method: competition with immobilised ligand
# Concentration: 1 µM
target,remaining binding [%]
"PIP5K1C (Homo sapiens, UniProt O60331)",100
"HIPK4 (Homo sapiens, UniProt Q8NE63)",100
"KIT (Homo sapiens, UniProt P10721, V559D)",73.5
"CDKL2 (Homo sapiens, UniProt Q92772)",100
"MAP3K12 (Homo sapiens, UniProt Q12852)",67.7
"STK17A (Homo sapiens, UniProt Q9UEE5)",100
"FGFR3 (Homo sapiens, UniProt P22607)",90.7
"eIF-2-alpha kinase GCN2, C-terminal kinase domain (EIF2AK4, Homo sapiens, UniProt Q9P2K8, S808G)",100
"SLK (Homo sapiens, UniProt Q9H2G2)",95.2
"FLT3 (Homo sapiens, UniProt P36888, F691L/ITD)",100
"WNK1 (Homo sapiens, UniProt Q9H4A3)",100
"Ribosomal protein S6 kinase alpha-6, N-terminal kinase domain (RPS6KA6, Homo sapiens, UniProt Q9UK32)",100
"PRKCE (Homo sapiens, UniProt Q02156)",91.2
"PLK4 (Homo sapiens, UniProt O00444)",96.9
"FRK (Homo sapiens, UniProt P42685)",100
"CDK18 (Homo sapiens, UniProt Q07002)",80.6
"EIF2AK1 (Homo sapiens, UniProt Q9BQI3)",100
"TRPM6 (Homo sapiens, UniProt Q9BX84)",97
"MYLK3 (Homo sapiens, UniProt Q32MK0)",100
"FGR (Homo sapiens, UniProt P09769)",100
"MAPK1 (Homo sapiens, UniProt P28482)",61.7
"ULK1 (Homo sapiens, UniProt O75385)",100
"LRRK2 (Homo sapiens, UniProt Q5S007)",74.6
"NEK2 (Homo sapiens, UniProt P51955)",90.8
"TGFBR1 (Homo sapiens, UniProt P36897)",74.3

# Excerpt of the above (set 4):
target,remaining binding [%]
"PLK4 (Homo sapiens, UniProt O00444)",96.9
"LRRK2 (Homo sapiens, UniProt Q5S007)",74.6
"FGR (Homo sapiens, UniProt P09769)",100
"EIF2AK1 (Homo sapiens, UniProt Q9BQI3)",100
"MAP3K12 (Homo sapiens, UniProt Q12852)",67.7
"NEK2 (Homo sapiens, UniProt P51955)",90.8
"TGFBR1 (Homo sapiens, UniProt P36897)",74.3
"PIP5K1C (Homo sapiens, UniProt O60331)",100
